Experimental data collected from several papers.
Every numbered part comes from another study and shows a few of its results, in no order.

Study 1 — method: competition protein-binding microarray; form: double-stranded DNA, one strand shown; matrix: in vitro; concentration: 2 µM; together with: Cbf1 competitor, 0.05 µM; reading: higher = stronger binding; measurement: fluorescence intensity
Target: Phosphate system positive regulatory protein PHO4, full length, GST-tagged (PHO4, Saccharomyces cerevisiae, UniProt P07270, residues 1-312)
Setting: whole 60-bp probe, lowest competitor level
Construct (chain): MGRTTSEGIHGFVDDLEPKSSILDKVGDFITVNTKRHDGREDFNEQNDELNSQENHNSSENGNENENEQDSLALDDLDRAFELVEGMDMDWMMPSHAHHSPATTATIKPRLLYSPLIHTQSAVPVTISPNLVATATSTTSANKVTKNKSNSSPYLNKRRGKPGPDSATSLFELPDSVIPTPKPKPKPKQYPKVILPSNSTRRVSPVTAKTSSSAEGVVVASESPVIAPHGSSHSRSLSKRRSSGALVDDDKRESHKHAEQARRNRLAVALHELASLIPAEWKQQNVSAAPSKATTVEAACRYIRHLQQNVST
TAGGATCGACTTACCCACGTCCAACTGCTGTTGACGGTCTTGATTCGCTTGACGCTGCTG: 5190 a.u.
TAGGAGACTAGTGGTTATGTGACGGTGCGAACCTAAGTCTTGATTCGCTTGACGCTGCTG: 3390 a.u.
AATGCAAACTGGGAGAATGTGACTCGATCGAGGAAAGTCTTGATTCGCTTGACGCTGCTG: 4400 a.u.
TGAGAACATCCAACTAGCGTGCCGATGCAATCCCAGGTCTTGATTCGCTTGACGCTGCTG: 6770 a.u.
GTCTTGTCTCATTGCAATGTGGGTGTCCCCACTTCAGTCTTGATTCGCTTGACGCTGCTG: 5850 a.u.
GCAGGGAGCGTCCAACACGTCAGCGTCAATTCCTTCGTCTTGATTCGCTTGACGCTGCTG: 3890 a.u.
GAAGCGTTGCCCTATGACGTGCAAAGTACCGATATTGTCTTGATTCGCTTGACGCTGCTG: 5620 a.u.
CATACCCAACCTTGATACGTGGGTGAAGATATTTGTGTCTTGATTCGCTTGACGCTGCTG: 7730 a.u.
CTTTCCCGATCTTTTCACGTGGTATTAGCACATTTGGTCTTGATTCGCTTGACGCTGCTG: 13500 a.u.
CATACCCAACCTTTTCACGTGTGTTAAGATATTTGTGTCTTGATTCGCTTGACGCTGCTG: 14200 a.u.
CATACCCAACCTTGGGCGGTGGGTGAAGATATTTGTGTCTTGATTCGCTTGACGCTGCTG: 4060 a.u.
TTGTAATGCTTTCGTCTCGTGCCAGGCCTGCGCTAAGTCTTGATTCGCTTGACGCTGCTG: 7670 a.u.
CATACCCAACCTTGTCACCGTACTTAAGATATTTGTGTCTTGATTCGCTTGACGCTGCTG: 3920 a.u.
GTCAGAAAGCCGGGTAAGGTGTGCCAGCGCGAGTAAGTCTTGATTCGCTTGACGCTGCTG: 5840 a.u.
CTTTCCCGATCTTTTCACGTGCGATTAGCACATTTGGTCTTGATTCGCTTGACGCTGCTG: 16200 a.u.
GTCTTGTCTCATTGAAAAGTGGGTGTCCCCACTTCAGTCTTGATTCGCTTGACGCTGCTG: 4090 a.u.
CATTTCTGTCCATGCCTCGTGCGGAAATGATTGAATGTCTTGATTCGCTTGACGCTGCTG: 14600 a.u.
CGGGGTTAAGTTTGGACTGTGGGTGGCTTGCAGCAGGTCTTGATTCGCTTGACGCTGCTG: 5450 a.u.
CGTCCTAGTGATTGTGCAGTGGGTGCCATGAGGAAGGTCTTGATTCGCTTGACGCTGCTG: 6840 a.u.

Study 2 — method: protein binding microarray; form: double-stranded DNA, one strand shown; matrix: in vitro; concentration: not given; reference: not given; reading: higher = stronger binding; measurement: E-score
Target: Histone acetyltransferase KAT6A, winged helix 1, GST fusion (KAT6A, Homo sapiens, UniProt Q92794, residues 1-85)
Setting: 8-mer, flanks averaged, mean of 2 arrays, mostly near background
Construct (chain): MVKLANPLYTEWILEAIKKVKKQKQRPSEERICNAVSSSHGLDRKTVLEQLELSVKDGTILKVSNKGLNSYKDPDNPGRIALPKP
CTAGACAC: -0.137
ATATCCGG: 0.0691
AATATAGG: 0.00626
ATGTTCAG: -0.283
CGAATCCC: 0.044
ATTGGGGC: -0.0705
ATCATTTC: -0.264
ACCAGGAA: -0.173
GGTACGGA: 0.29
ATGACGCC: 0.137
GTGTGACA: -0.0907
CAGGCATA: -0.0963
ATGTCTCA: -0.203
CTTGGACC: 0.0446
AATTCTCA: -0.24
AATCTTAT: -0.0636
CATGAGCA: -0.232

Study 3 — method: universal PBM; form: double-stranded DNA, one strand shown; matrix: in vitro; concentration: 600 nM; reading: higher = stronger binding; measurement: E-score
Target: Sal-like protein 4, full length isoform A (SALL4, Homo sapiens, UniProt Q9UJQ4, residues 1-1053)
Chain of UniProt Q9UJQ4 (whole entry, looked up): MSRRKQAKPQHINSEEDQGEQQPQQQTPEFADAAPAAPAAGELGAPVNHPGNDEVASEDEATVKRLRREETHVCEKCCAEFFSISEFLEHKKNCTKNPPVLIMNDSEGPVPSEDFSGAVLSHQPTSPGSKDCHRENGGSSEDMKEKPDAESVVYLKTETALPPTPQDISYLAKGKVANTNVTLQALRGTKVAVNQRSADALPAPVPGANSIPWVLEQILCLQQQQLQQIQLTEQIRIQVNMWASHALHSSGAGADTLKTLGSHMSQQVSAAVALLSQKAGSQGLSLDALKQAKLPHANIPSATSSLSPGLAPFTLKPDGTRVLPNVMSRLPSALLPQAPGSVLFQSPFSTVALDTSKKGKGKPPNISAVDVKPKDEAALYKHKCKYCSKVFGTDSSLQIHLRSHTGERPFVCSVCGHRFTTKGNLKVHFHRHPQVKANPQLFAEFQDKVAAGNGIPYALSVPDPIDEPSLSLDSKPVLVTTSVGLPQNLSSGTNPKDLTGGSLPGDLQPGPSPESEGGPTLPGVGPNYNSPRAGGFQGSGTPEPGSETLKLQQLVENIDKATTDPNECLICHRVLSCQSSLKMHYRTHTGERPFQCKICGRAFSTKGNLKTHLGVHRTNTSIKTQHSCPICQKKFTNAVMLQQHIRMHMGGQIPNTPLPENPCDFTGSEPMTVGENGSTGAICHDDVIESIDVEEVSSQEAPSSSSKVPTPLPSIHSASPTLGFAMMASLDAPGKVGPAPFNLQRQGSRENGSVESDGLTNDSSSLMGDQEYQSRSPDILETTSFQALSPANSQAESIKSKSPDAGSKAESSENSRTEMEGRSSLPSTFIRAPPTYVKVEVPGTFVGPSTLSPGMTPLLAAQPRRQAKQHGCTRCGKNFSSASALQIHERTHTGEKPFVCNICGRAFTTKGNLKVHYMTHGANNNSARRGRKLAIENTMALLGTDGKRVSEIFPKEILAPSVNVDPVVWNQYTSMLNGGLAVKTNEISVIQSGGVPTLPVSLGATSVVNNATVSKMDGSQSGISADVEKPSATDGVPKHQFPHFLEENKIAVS
Setting: 8-mer, flanks averaged, mean of replicates
CTTGGGCA: -0.174
ATAGTGCC: -0.0746
ACGTTCCA: -0.101
CGTGAGTC: -0.202
AAAGATTG: 0.16
ACTTCCGC: -0.0578
GTGTAATA: 0.314
AATGCCAC: -0.113
ACTAGGCC: -0.272
ACGCCGAC: -0.248
CCAACATA: 0.226
AGCTAGAT: 0.0813
CTGTGCAA: 0.0574
AATATCAT: 0.377
ACGGGAAT: -0.019
ATGGACAT: 0.136
AAGGGCAT: -0.00345
AGTTAACA: 0.203
CAACCAAC: -0.134
ATCTGAAC: 0.0854
AATGATAC: 0.28
CGGGATAC: -0.236
CTGCGTAC: -0.137
CACTGAGA: -0.0121
CGACCTAC: -0.305

Study 4 — method: RNA Bind-n-Seq; form: RNA; matrix: in vitro; concentration: 365 nM; reference: no-protein control; reading: higher = stronger binding; measurement: RBNS enrichment (R)
Target: RNA binding protein fox-1 homolog 2, RRM domain, GST-SBP tag (RBFOX2, Homo sapiens, UniProt O43251-10, residues 100-194)
Setting: natural RNA segment, single round, ends assumed
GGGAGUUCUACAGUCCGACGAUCUCUGGCUCCGUGGCUGGAGGACCAACCCCUAUAGUGGGAAUGCAGAGCUUAACGUGUACUGCUUGUGUGUGUGCGUGAGUGUGUGUGUGUGUAUGAGUGUGUGUUCCGCCUGGAAUUCUCGGGUGCCAA: 3.8
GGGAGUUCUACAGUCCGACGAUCCAGAUGGUAGGAGCUGGAGCAAGGUGGUCCACAGGGGAAUGCCUCUCCUGUGCCCAUUUUAUAAUACCUCGCCAAGCUUGGGUCUUUAGAUGAGCAAGAUUAUGGUUAGUUGGAAUUCUCGGGUGCCAA: 0.392
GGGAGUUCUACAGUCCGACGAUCAAACAGGAGAGAAAGGGGAUGUAUCCAUGGGGGCAGGGCAUGACUUUGUCCCAUUUCUAAAGGCCUCUUCCUUGCUGUGUCAUACCAGGCCGCCCCAGCCUCUGAGCCCCUGGAAUUCUCGGGUGCCAA: 0.417
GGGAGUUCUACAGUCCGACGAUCCUAUUUUGAAGAUUAAAUGCACACUUUUUAUAUAAUGUGACCAGUUUAAAUGUAGUUUGUAUUGUACUGGGGGACCUUUCGUUGUUGUUGUUUGCUUAAACUGUGAUUUUUGGAAUUCUCGGGUGCCAA: 7.98
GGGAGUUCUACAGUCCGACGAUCAAGGACAUGGCUCUAAAAUUUCCUGUUGAUUGGCAUGUGUAUCUCAUUUAAAGCAAAAUUAGGUAGAACAAACCAGUCAGUAAGAUUAGAAGUAUUACAGAGAAUCAUCCUGGAAUUCUCGGGUGCCAA: 0.761
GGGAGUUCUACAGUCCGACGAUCUUUUAAAUUGUACGAAGGGGAAUUUAAAAAUACGUAACUGCUGUUUAUACAUCAGCUCCUUACUGCUUAUUAAUCUGUAUUGUACCCACGAUAUCAGGAGUGAAGCAGACUGGAAUUCUCGGGUGCCAA: 0.382
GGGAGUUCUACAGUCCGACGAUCAAACUGGAAAAAAAGAAAAAGAAAAAUAUGACUAUUAGAUUUCCAGGUAUAGAACUGUGUUCUUUGAGAGGGAAAAGAAAUAUGGUGUUUCCUUUUAGACACAAACAAUAUGGAAUUCUCGGGUGCCAA: 0.829
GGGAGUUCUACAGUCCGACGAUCCAGACAAGGUGGAGACCCAGCAGCAGUAAAUACCUAGCAAUUCCAAGGACUUGGUUUCAUCAGUUACCAGGAAGUGGGGGAACCAUGGAGGGAGAACGCUAUAUUGGGUUUGGAAUUCUCGGGUGCCAA: 0.406

Study 5 — method: aptamer microarray, sandwich; form: DNA with 2'F-ANA; matrix: in vitro; concentration: 200 nM; together with: Cy3 exosite-II aptamer, 400 nM; reading: higher = stronger binding; measurement: mean fluorescence intensity; oligonucleotide: GGTTGGTGTGGTTGG
Target: Prothrombin, mature alpha-thrombin (F2, Homo sapiens, UniProt P00734)
Setting: whole 15-mer aptamer, many near background
2'F-ANA at 2 3 7 9 10 12 13 14 15: 271 a.u.
2'F-ANA at 2 3 4 6 8 9 14: 255 a.u.
2'F-ANA at 7 9 10 12 13 14: 126 a.u.
2'F-ANA at 2 3 6 9 10 12: 390 a.u.
2'F-ANA at 6 7 9 11 14: 159 a.u.
2'F-ANA at 2 3 5 6 7 8 10: 50.6 a.u.
2'F-ANA at 1 2 3 4 9 11 14 15: 56.1 a.u.
2'F-ANA at 2 4 5 6 9 10 11 15: 50.6 a.u.
2'F-ANA at 4 5 6 9 10 11 12 13 14 15: 55.8 a.u.
2'F-ANA at 1 2 3 6 10 13: 59.4 a.u.
2'F-ANA at 1 3 4 6 8 10 11 15: 59.7 a.u.
2'F-ANA at 1 2 3 8 9 10 15: 85.7 a.u.
2'F-ANA at 1 3 4 5 10 11 12 14 15: 49.1 a.u.
2'F-ANA at 4 7 10 11 12 13: 92.9 a.u.
2'F-ANA at 1 2 3 4 5 6 8 9 10 13 14 15: 65.7 a.u.
2'F-ANA at 1 2 5 6 8 9 11 15: 57.1 a.u.
2'F-ANA at 1 4 7 8 10 13: 66.9 a.u.
2'F-ANA at 1 2 7 8 10 14 15: 160 a.u.
2'F-ANA at 2 3 4 8 10 11 12 13 14 15: 154 a.u.
2'F-ANA at 1 4 6 7 8 10 11 15: 49.5 a.u.
2'F-ANA at 1 3 5 6 7 8 9 10 11 12: 51.2 a.u.

Some of these lines once more (study 3):
ACTTCCGC: -0.0578
GTGTAATA: 0.314
AATGCCAC: -0.113
ACTAGGCC: -0.272
ACGCCGAC: -0.248
CCAACATA: 0.226
AGCTAGAT: 0.0813
CTGTGCAA: 0.0574
AATATCAT: 0.377
ACGGGAAT: -0.019
